# Published values collected from several papers.
# Parts stem from different laboratories: compare values within a part only.
# UniProt Q92985, sequence (whole entry, unmodified, looked up): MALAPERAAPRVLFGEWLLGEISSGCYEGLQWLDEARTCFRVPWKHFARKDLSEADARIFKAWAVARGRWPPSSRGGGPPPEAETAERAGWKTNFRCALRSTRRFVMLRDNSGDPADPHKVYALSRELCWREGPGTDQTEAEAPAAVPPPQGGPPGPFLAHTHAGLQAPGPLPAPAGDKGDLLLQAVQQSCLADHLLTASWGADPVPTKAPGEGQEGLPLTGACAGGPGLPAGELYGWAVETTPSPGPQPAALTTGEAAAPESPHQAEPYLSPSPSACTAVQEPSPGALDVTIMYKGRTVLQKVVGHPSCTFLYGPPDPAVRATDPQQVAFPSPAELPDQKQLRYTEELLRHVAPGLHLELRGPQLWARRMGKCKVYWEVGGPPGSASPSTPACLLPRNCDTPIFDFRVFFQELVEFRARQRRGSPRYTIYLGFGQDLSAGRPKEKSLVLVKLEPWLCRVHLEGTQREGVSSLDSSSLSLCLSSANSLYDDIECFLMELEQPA

# Block 1 — technique: universal PBM; form: double-stranded DNA, one strand shown; medium: in vitro; tested at: not given; direction: higher = stronger binding
# Target: Sal-like protein 4, full length isoform B (SALL4, Homo sapiens, UniProt Q9UJQ4-2, residues 1-616)
# Notes: 8-mer, flanks averaged, mean of replicates
Sequence,E-score
TGAGTGCA,-0.022
GATACAAC,0.108
CTCGAGCC,-0.163

# Other studies, line by line
# F2 mature alpha-thrombin: Prothrombin, mature alpha-thrombin (F2, Homo sapiens, UniProt P00734)
Molecule,target,test,test system,setting,scale,endpoint,result
ACTACCAG,"Histone acetyltransferase KAT6A, winged helix 1, GST fusion (KAT6A, Homo sapiens, UniProt Q92794, residues 1-85)",protein binding microarray,"double-stranded DNA, one strand shown, in vitro","not given, 8-mer, flanks averaged, mean of 2 arrays, mostly near background","relative to: not given, higher = stronger binding",E-score,-0.131
GGTTGGTGTGGTTGG (2'F-ANA at 2 4 6 8 9 10 13),F2 mature alpha-thrombin,"aptamer microarray, sandwich","DNA with 2'F-ANA, in vitro","200 nM, whole 15-mer aptamer, many near background, added: Cy3 exosite-II aptamer, 400 nM",higher = stronger binding,mean fluorescence intensity,76.6 a.u.
AATGTAGA,"Histone acetyltransferase KAT6A, both winged helices, GST fusion (KAT6A, Homo sapiens, UniProt Q92794, residues 1-181)",protein binding microarray,"double-stranded DNA, one strand shown, in vitro","not given, 8-mer, flanks averaged, mean of 2 arrays, mostly near background","relative to: not given, higher = stronger binding",E-score,-0.0848
GCCTAGCACGACGGACTGCTTTACCTGACGTGCTAGGTCTTGATTCGCTTGACGCTGCTG,"Interferon regulatory factor 7, full length, phosphomimetic (IRF7, Homo sapiens, UniProt Q92985, residues 1-503, S471D/S472D/S475D/S476D/S477D/S483D/S484D/S487D)",protein-binding microarray,"double-stranded DNA, one strand shown, in vitro","2200 nM top, 60-bp whole probe, added: salmon DNA 0.4 mg/ml","relative to: random background probes, higher = stronger binding",fitted relative affinity,0.663 z-score
GGTTGGTGTGGTTGG (2'F-ANA at 1 3 6 8 13 14),F2 mature alpha-thrombin,"aptamer microarray, sandwich","DNA with 2'F-ANA, in vitro","200 nM, whole 15-mer aptamer, many near background, added: Cy3 exosite-II aptamer, 400 nM",higher = stronger binding,mean fluorescence intensity,88.7 a.u.
GCCTAGCACGACGGTGTCCTTTTCCTGACGTGCTAGGTCTTGATTCGCTTGACGCTGCTG,"Interferon regulatory factor 7, full length, phosphomimetic (IRF7, Homo sapiens, UniProt Q92985, residues 1-503, S101K/S471D/S472D/S475D/S476D/S477D/S483D/S484D/S487D)",protein-binding microarray,"double-stranded DNA, one strand shown, in vitro","250 nM, 60-bp whole probe, added: salmon DNA 0.4 mg/ml","relative to: random background probes, higher = stronger binding",log fluorescence,0.0684 z-score
"PhoQ, residues 284 288 289 292 302 303 SSTLSG","PhoP, residues 12 14 15 18 19 NNFVT (Escherichia coli, UniProt P23836)","Sort-seq, item: YFP reporter",E. coli,"PhoQ-PhoP variant library, added: 10 µM Mg2+","relative to: high Mg2+ state, higher = stronger signaling",fold induction,1.23

# For quick reference, copied from above (other studies, line by line):
Molecule,target,test,test system,setting,scale,endpoint,result
"PhoQ, residues 284 288 289 292 302 303 SSTLSG","PhoP, residues 12 14 15 18 19 NNFVT (Escherichia coli, UniProt P23836)","Sort-seq, item: YFP reporter",E. coli,"PhoQ-PhoP variant library, added: 10 µM Mg2+","relative to: high Mg2+ state, higher = stronger signaling",fold induction,1.23
